# Assay results collected from several papers.
# Lines come from different studies, so protocols differ. Values joined by “and” are separate records of one study, mostly repeats; a detail may differ. Numbers after ± are the reported error.
Substance,cell line,test,test system,conditions,scale,endpoint,result
Cc1cn(Cc2ccc(O)c(C=O)c2)c(=O)[nH]c1=O,HEL fibroblasts,"cell morphology, microscopy",,,,minimum cytotoxic concentration,≥ 100 µM
CCCN(CCC)S(=O)(=O)c1ccc(C(=O)O)cc1,rabbit renal proximal tubule cells,,,"200 µM, 24 h, with DHP-I siRNA or cilastatin 200 µM, added: imipenem",,survival rate increase,7.8%
O=C(CN(Cc1ccccc1)S(=O)(=O)NCc1cccc(Oc2ccccc2)c1)NCCN1CCOCC1,HG23 norovirus replicon cells,,,48 h,,TD50,45 ± 13 µM
CCCCN(CCCC)N=O,HepaRG 3D spheroids,cell viability,,"concentration not given, 24 h",reference: vehicle,ATP level,83.5%
O=C(c1cc(Cc2n[nH]c(=O)c3ccccc23)ccc1F)N1CCN(C(=O)C2CC2)CC1,MDA-MB-231,,,72 h,reference: vehicle,concentration increasing cytotoxicity,320 µM
O=C(Cc1ccccc1Nc1c(Cl)cccc1Cl)Oc1ccc(-c2cc(=S)ss2)cc1,HepG2 and LS180,"EROD activity, inhibitor",,"24 h, averaged over cell lines, added: TCDD 250 pmol",,IC50,38 µM
H-HGLASTLTRWAHYNALIRAFGGG-NH2 (C-amide),U-87 MG,fluorimetry,,"1 µM, 2 h, serum-free",,internalized peptide,~30%
O=c1ccn([C@@H]2O[C@](F)(CO)[C@@H](O)C2(F)F)c(=O)[nH]1,HEL embryonic lung fibroblasts,"cell morphology, microscopy",,,,minimum cytotoxic concentration,> 100 µM
COc1cccc2c1C(=O)c1c(O)c3c(c(O)c1C2=O)C[C@@](O)(C(=O)CO)C[C@@H]3O[C@H]1C[C@H](N)[C@H](O)[C@H](C)O1,HCT-8/ADR,,,"concentration not given, up to 4 h, 2 h loading then drug-free medium",,AUC of intracellular concentration,463 ng·h/mL
CC[C@H](C)[C@H](NC(=O)[C@H](CCCCN)NC(=O)[C@@H](NC(=O)[C@H](CC(N)=O)NC(=O)[C@H](C)NC(=O)[C@H](CCCNC(=N)N)NC(=O)[C@H](CCCNC(=N)N)NC(=O)[C@H](CC(N)=O)NC(=O)[C@H](CCCNC(=N)N)NC(=O)[C@H](CCCNC(=N)N)NC(=O)[C@H](C)NC(=O)[C@@H](NC(=O)[C@H](CO)NC(=O)[C@@H](NC(=O)[C@@H](NC(=O)[C@H](CS)NC(=O)[C@H](CCCCN)NC(=O)[C@@H](N)CCCNC(=N)N)C(C)C)[C@@H](C)CC)C(C)C)[C@@H](C)CC)C(=O)N[C@@H](CC(C)C)C(=O)N[C@@H](CS)C(=O)N[C@@H](CC(N)=O)C(=O)O,human red blood cells,,,"128 µg/mL, 3 h, 37 °C",reference: Triton X-100,hemolysis,0.84%
Nc1ccn(C[C@@H](CO)OCP(=O)(O)O)c(=O)n1.O.O,HEL embryonic lung fibroblasts,"cell morphology, microscopy",,,,minimum cytotoxic concentration,300 µM
N=C(N)NCCC[C@H](NC(=O)C(=Cc1ccccc1)NC(=O)[C@@H](N)CCCNC(=N)N)C(=O)NCC(=O)N[C@@H](CC(=O)O)C(N)=O,T cells cocultured with dendritic cells,ELISA,,77 to 386 µM,,IFN-γ secretion,< 4 pg/mL
Nc1ccn(C[C@@H](CO)OCP(=O)(O)O)c(=O)n1,HEL fibroblasts,"cell morphology, microscopy",,,,minimum cytotoxic concentration,317 µM
c1ccc2c(c1)Cc1ccccc1-2,human iPSC-derived cardiomyocytes,"mitochondrial membrane potential, measured: JC-10 granules",,30 min,,point of departure,< 30 µM
CN(C)N=O,HepaRG 3D spheroids,"DNA damage, measured: % tail DNA",,24 h,reference: vehicle,lowest effective concentration,78.1 µM
GRKKRRQRRRPQSWQDLKDH,A-375,MTT,peptide,"up to 100 µM, 24 h",,cytotoxicity,not toxic
C=C(C[C@H](N)C(=O)O)C(=O)NCc1ccc([N+](=O)[O-])cc1,MDA-MB-231,,,24 h,reference: vehicle,concentration increasing cytotoxicity,320 µM
Cc1ccc(NC(=O)c2cc3c(=O)n4cccc(C)c4nc3n2C)cc1Cl,Vero E6,MTT,,,,IC50,64.4 ± 4.91 µM
COP(=S)(OC)Oc1ccc([N+](=O)[O-])c(C)c1,Caco-2,Hoechst and PI staining,,"25 µM, 48 h",reference: untreated,apoptotic cells ratio,6.3
CC(C)N(N=O)C(C)C,"HepaRG, 2D",,,"concentration not given, 24 h, highest tested concentration, hEGF 3 days",reference: vehicle,relative survival,77.8%
C=C(C[C@H](N)C(=O)O)C(=O)Nc1ccc(F)cc1,MDA-MB-231,,,24 h,reference: vehicle,concentration increasing cytotoxicity,10 µM
CC(C)C[C@H](NC(=O)[C@H](Cc1ccccc1)NC(=O)[C@H](Cc1ccccc1)NC(=O)Cc1ccc(-c2ccccc2)cc1)C(=O)N[C@@H](CCCCN)C(=O)N[C@@H](CCCNC(=N)N)C(=O)N[C@H](C(=O)N[C@@H](Cc1c[nH]c2ccccc12)C(=O)N[C@@H](CCCCN)C(=O)N[C@@H](CCCNC(=N)N)C(=O)O)C(C)C,THP-1,MTT,,"concentration not given, 24 h",,viability,> 80%
CCN(N=O)C(C)C,HepaRG 3D spheroids,cell viability,,"concentration not given, 24 h",reference: vehicle,ATP level,82.5%
O=C(COc1ccc(-c2ccccc2)cc1)NC(=O)N[C@@H]1O[C@H](CO)[C@@H](O)[C@H](O)[C@H]1O,HEL fibroblasts,cell morphology,,3 days,,minimal cytotoxic concentration,> 100 µM
C[C@H](Cn1cnc2c(N)ncnc21)OCP(=O)(O)O,hCMEC/D3,,,"10 µM, 1 h",,intracellular concentration,0.64 ± 0.17 ng/mL
CC(=O)c1cccc(NC(=O)c2cc3c(=O)n4ccccc4nc3n2C)c1,Vero E6,MTT,,,,IC50,121 ± 9.21 µM
CCN(CC)N=O,HepaRG spheroids,"micronucleus formation, flow cytometry",,24 h,reference: vehicle control,lowest effective concentration,5000 µM
O=c1c(O)c(-c2ccc(O)c(O)c2)oc2cc(O)ccc12,A549,"cell viability, MTS",,"3 days, 90% cells viable",,maximum non-toxic concentration,121.9 ± 0.99 µM
CSCCC(NS(=O)(=O)NCc1cccc(Oc2ccccc2)c1)C(=O)NCCN1CCOCC1 (racemic),HG23 norovirus replicon cells,,,48 h,,TD50,124 ± 25 µM
CC(C)CCCCCCCOP(=O)(Oc1ccccc1)Oc1ccccc1,human iPSC-derived cardiomyocytes,"mitochondrial membrane potential, measured: JC-10 granules",,30 min,,point of departure,< 30 µM
COc1ccc2c3c([nH]c2c1)[C@H](CC(C)C)N1C(=O)[C@H](CCC(=O)OC(C)(C)C)NC(=O)[C@@H]1C3,Jurkat-DNR,"cytotoxicity, measured: cell viability",,,,TD50,2.84 µM
Cc1oncc1C(=O)Nc1ccc(C(F)(F)F)cc1,Huh-7,CPE,,7 days,,CC50,> 100 µM
CC[C@H](C)[C@H](NC(=O)[C@H](Cc1ccc(O)cc1)NC(=O)[C@@H](NC(=O)[C@H](CC(N)=O)NC(=O)[C@H](C)NC(=O)[C@H](CCCNC(=N)N)NC(=O)[C@H](CCCNC(=N)N)NC(=O)[C@H](CC(N)=O)NC(=O)[C@H](CCCNC(=N)N)NC(=O)[C@H](CCCNC(=N)N)NC(=O)[C@H](C)NC(=O)[C@@H](NC(=O)[C@H](CO)NC(=O)[C@@H](NC(=O)[C@@H](NC(=O)[C@H](CS)NC(=O)[C@H](CCCCN)NC(=O)[C@@H](N)CCCNC(=N)N)C(C)C)[C@@H](C)CC)C(C)C)[C@@H](C)CC)C(=O)N[C@@H](CC(C)C)C(=O)N[C@@H](CS)C(=O)N[C@@H](CCCNC(=N)N)C(=O)O,human red blood cells,,,"128 µg/mL, 3 h, 37 °C",reference: Triton X-100,hemolysis,2.02%
CN(CC(=O)NCCN1CCOCC1)S(=O)(=O)NCc1cccc(Oc2ccccc2)c1,HG23 norovirus replicon cells,,,48 h,,TD50,320 ± 24 µM
[CH3][Hg][Cl],human iPSC-derived cardiomyocytes,mitochondrial membrane potential,,30 min,,point of departure,< 30 µM
COc1cc2c(c(OC)c1OC)-c1c(cc3c(c1OC)OCO3)CC(C)C(C)C2 (centres unmarked),HepG2,LDH leakage,"RPMI, 10% FBS","48 h, added: phenobarbital (CYP450 inducer)",,LD50,21 µM
CC(=O)O[C@@]12CO[C@@H]1C[C@H](O)[C@@]1(C)C(=O)[C@H](OC(=O)C3CC3)C3=C(C)[C@@H](OC(=O)[C@H](O)[C@H](C=C(C)C)NC(=O)OC(C)(C)C)C[C@@](O)([C@@H](OC(=O)c4ccccc4)[C@H]21)C3(C)C,L1210,"cytotoxicity, MTT",,72 h,,IC50,0.0097 µM and 0.00972 µM
C[C@@H]1CCO[C@H]2Cn3cc(C(=O)NCc4ccc(F)cc4F)c(=O)c(O)c3C(=O)N12,hCMEC/D3,,,"10 µM, 1 h, in antiretroviral combination",,intracellular concentration,46.6 ± 2.71 ng/mL
N[C@@]1(C(=O)O)CC[C@@H](C(=O)O)C1,rat cerebellar granule cells,PI hydrolysis,,"24 h, culture-conditioned medium",reference: freshly prepared,EC50 and Emax,no effect
CC(=O)c1cc(-c2cc(C(=O)NC3CC3)ccc2C)c2ncccn12,MDA-MB-231,trypsin-EDTA digestion vs solvent extraction,,"concentration not given, 6 h",,nonspecific binding,65%
CCCCC(=O)N1CCC2(CC1)N=C(N)N=C(N)N2c1cccc(OC)c1,MDCK,"microscopy, altered cell morphology",,,,minimum cytotoxic concentration,≥ 100 µM
c1ccc2c(c1)-c1cccc3c1c-2cc1ccccc13,human iPSC-derived cardiomyocytes,"cytotoxicity, calcein AM",,24 h,,point of departure,< 30 µM
CC(C)(C)OC(=O)N1CCC2(CC1)N=C(N)N=C(N)N2Cc1cccc(Cl)c1,MDCK,"microscopy, altered cell morphology",,,,minimum cytotoxic concentration,> 100 µM
CC[C@H](C)[C@H](NC(=O)[C@H](CCCNC(=N)N)NC(=O)[C@H](CC(C)C)NC(=O)[C@@H](NC(=O)[C@H](CO)NC(=O)[C@H](CC(C)C)NC(=O)[C@@H](NC(=O)[C@H](CCCCN)NC(=O)[C@H](CO)NC(=O)[C@H](CC(C)C)NC(=O)[C@@H](N)Cc1ccccc1)[C@@H](C)CC)[C@@H](C)O)C(=O)N[C@@H](CC(C)C)C(=O)N[C@@H](Cc1ccccc1)C(N)=O,human red blood cells,hemolysis,,"1 h, 37 °C",,HC50,25 µM
CN(CCCC(=O)O)N=O,HepaRG 3D spheroids,"DNA damage, measured: % tail DNA",,24 h,reference: vehicle,lowest effective concentration,625 µM
CC(C)(C)OC(=O)N1CCC2(CC1)N=C(N)N=C(N)N2c1cccc(Cl)c1,MDCK,"microscopy, altered cell morphology",,,,minimum cytotoxic concentration,≥ 20 µM
Nc1ccn([C@@H]2O[C@H](CO)[C@@H](O)C2(F)F)c(=O)n1,HEL embryonic lung fibroblasts,"cell morphology, microscopy",,,,minimum cytotoxic concentration,20 µM

# Some of these lines once more:
Substance,cell line,test,test system,conditions,scale,endpoint,result
CC(=O)O[C@@]12CO[C@@H]1C[C@H](O)[C@@]1(C)C(=O)[C@H](OC(=O)C3CC3)C3=C(C)[C@@H](OC(=O)[C@H](O)[C@H](C=C(C)C)NC(=O)OC(C)(C)C)C[C@@](O)([C@@H](OC(=O)c4ccccc4)[C@H]21)C3(C)C,L1210,"cytotoxicity, MTT",,72 h,,IC50,0.0097 µM and 0.00972 µM
CC[C@H](C)[C@H](NC(=O)[C@H](CCCCN)NC(=O)[C@@H](NC(=O)[C@H](CC(N)=O)NC(=O)[C@H](C)NC(=O)[C@H](CCCNC(=N)N)NC(=O)[C@H](CCCNC(=N)N)NC(=O)[C@H](CC(N)=O)NC(=O)[C@H](CCCNC(=N)N)NC(=O)[C@H](CCCNC(=N)N)NC(=O)[C@H](C)NC(=O)[C@@H](NC(=O)[C@H](CO)NC(=O)[C@@H](NC(=O)[C@@H](NC(=O)[C@H](CS)NC(=O)[C@H](CCCCN)NC(=O)[C@@H](N)CCCNC(=N)N)C(C)C)[C@@H](C)CC)C(C)C)[C@@H](C)CC)C(=O)N[C@@H](CC(C)C)C(=O)N[C@@H](CS)C(=O)N[C@@H](CC(N)=O)C(=O)O,human red blood cells,,,"128 µg/mL, 3 h, 37 °C",reference: Triton X-100,hemolysis,0.84%
CC[C@H](C)[C@H](NC(=O)[C@H](Cc1ccc(O)cc1)NC(=O)[C@@H](NC(=O)[C@H](CC(N)=O)NC(=O)[C@H](C)NC(=O)[C@H](CCCNC(=N)N)NC(=O)[C@H](CCCNC(=N)N)NC(=O)[C@H](CC(N)=O)NC(=O)[C@H](CCCNC(=N)N)NC(=O)[C@H](CCCNC(=N)N)NC(=O)[C@H](C)NC(=O)[C@@H](NC(=O)[C@H](CO)NC(=O)[C@@H](NC(=O)[C@@H](NC(=O)[C@H](CS)NC(=O)[C@H](CCCCN)NC(=O)[C@@H](N)CCCNC(=N)N)C(C)C)[C@@H](C)CC)C(C)C)[C@@H](C)CC)C(=O)N[C@@H](CC(C)C)C(=O)N[C@@H](CS)C(=O)N[C@@H](CCCNC(=N)N)C(=O)O,human red blood cells,,,"128 µg/mL, 3 h, 37 °C",reference: Triton X-100,hemolysis,2.02%
CN(CCCC(=O)O)N=O,HepaRG 3D spheroids,"DNA damage, measured: % tail DNA",,24 h,reference: vehicle,lowest effective concentration,625 µM
